Measurements pooled from the literature.
Parts stem from different laboratories: compare values within a part only. ± gives the spread as reported.

Series 1
Organism: SARS-CoV-2 Wuhan spike VSV pseudovirus
Effect on: pseudovirus entry
Tested at: 10 µM
Structure (SMILES) | inhibition [%]
CCCc1nc(Cn2ncc(Br)c(Br)c2=O)no1 | 100
COc1cccc(NC(=O)CCC2CCN(C(=O)C(C)n3cncn3)CC2)c1 (centres unmarked) | 85
CC1Oc2ccccc2OC1C(=O)Nc1nc(-c2ccc(N(C)S(C)(=O)=O)cc2)cs1 (centres unmarked) | 84
COc1ccc(C2CC(=O)Nc3cc(O)c(C)cc32)cc1Cn1cccn1 (centres unmarked) | 100
COc1ccc(S(=O)(=O)CCc2noc(C(=O)N3CCC4(CC3)OCCO4)n2)cc1 | 53
COC(=O)c1ccc(CN2CCN(CC3CCCCC3)C(CCO)C2)cc1 (centres unmarked) | 88
CCCOC1CCCN(C(=O)CCNC(=O)c2ccc(F)cc2)C1 (centres unmarked) | 99

Other studies, line by line
rep papain-like protease: Replicase polyprotein 1ab, papain-like protease (rep, Severe acute respiratory syndrome coronavirus 2, UniProt P0DTD1)
rep nsp12 RdRp: Replicase polyprotein 1ab, nsp12 RdRp (rep, Severe acute respiratory syndrome coronavirus 2, UniProt P0DTD1)
rep nsp14: Replicase polyprotein 1ab, nsp14 (rep, Severe acute respiratory syndrome coronavirus 2, UniProt P0DTD1)
SMILES | target | test | system | setting | how to read | measurement | value
CC(C)(F)C[C@H](N[C@@H](c1ccc(-c2ccc(S(C)(=O)=O)cc2)cc1)C(F)(F)F)C(=O)NC1(C#N)CC1 | rep papain-like protease | – | – | concentration not given, C111S mutant | relative to: positive control | activity | 21.4%
CCC(CC)[C@H](NC(C)=O)[C@@H]1[C@H](O)[C@@H](C(=O)O)C[C@H]1N=C(N)N | neuraminidase (Influenza B virus, UniProt A0A1S5RAG6, I221N) | – | – | – | – | IC50 | 359 ± 31.2 nM
C[C@@H](O)[C@H]1C(=O)N2C(C(=O)O)=C(S[C@@H]3CN[C@H](C(=O)Nc4cccc(C(=O)[O-])c4)C3)[C@H](C)[C@H]12.[Na+] | rep nsp12 RdRp | binding, biolayer interferometry | – | concentration not given | – | BLI response | -0.03 nm
O=C(NC1CCN(c2ncnc3[nH]cnc23)CC1)c1cccc(S(=O)(=O)N2CCCCC2)c1 | rep nsp14 | enzyme activity | SARS-CoV-2 | – | – | Hill slope | 1.37
C[C@H](CCC(=O)NCCS(=O)(=O)[O-])[C@H]1CC[C@H]2[C@@H]3[C@@H](O)C[C@@H]4C[C@H](O)CC[C@]4(C)[C@H]3CC[C@]12C.[Na+] | rep nsp12 RdRp | binding, biolayer interferometry | – | concentration not given | – | BLI response | 0 nm
O=C(NC1CCN(c2ncnc3[nH]cnc23)CC1)c1cccc(S(=O)(=O)N2CCC2)c1 | rep nsp14 | NSP14 enzyme activity, inhibitor | – | 200 µM | – | inhibition | 77.2%
CC(C)(C)OC(=O)N[C@H]1CCCCC/C=C\[C@@H]2C[C@@]2(C(=O)NS(=O)(=O)C2CC2)NC(=O)[C@@H]2C[C@@H](OC(=O)N3Cc4cccc(F)c4C3)CN2C1=O | rep papain-like protease | – | – | concentration not given, C111S mutant | relative to: positive control | activity | 19.5%

Repeated from above (series 1):
Structure (SMILES) | inhibition [%]
COC(=O)c1ccc(CN2CCN(CC3CCCCC3)C(CCO)C2)cc1 (centres unmarked) | 88
CCCOC1CCCN(C(=O)CCNC(=O)c2ccc(F)cc2)C1 (centres unmarked) | 99
